# Measurements of several laboratories.
# Protocols differ between the studies behind these lines. Several values in a cell are separate wells, animals, samples, runs or records. ± gives the spread as reported.
SMILES,test,system,conditions,how to read,endpoint,value
COc1ncccc1-c1cnn2ccc(N3CCN(C(=O)OC(C)C)CC3)nc12,,"mouse nerve ligation model, plasma","oral, 3 mg/kg, 30 min after last dose, repeat dosing day 1",,drug concentration,740 nM
CN1CC[C@@H](c2c(O)cc(O)c3c(=O)cc(-c4ccc(C(F)(F)F)cc4Cl)oc23)[C@@H]1CO,refers to: Anorexia,B-cell malignancies,"oral, 100 mg, intermittent dosing",,patients with adverse event,0%
CCCCCOc1ccc(-c2ccc(-c3ccc(C(=O)N[C@H]4C[C@@H](O)[C@@H](OCC[N+](C)(C)C)NC(=O)[C@@H]5[C@@H](O)[C@@H](C)CN5C(=O)[C@H]([C@@H](C)O)NC(=O)[C@H]([C@H](O)[C@@H](O)c5ccc(O)cc5)NC(=O)[C@@H]5C[C@@H](O)CN5C(=O)[C@H]([C@@H](C)O)NC4=O)cc3)cc2)cc1,,"adult ICU patients, mITT, serum","dose not given, day 30",,magnesium,0.7 mmol/L
CC(C)C[C@H](NC(=O)[C@H](CCCCN)NC(=O)OCC1c2ccccc2-c2ccccc21)C(=O)N[C@H](C(=O)N[C@@H](Cc1ccccc1)C(=O)N[C@@H](Cc1ccccc1)C(=O)N[C@@H](CCCCN)C(=O)NCC(=O)N[C@@H](Cc1ccccc1)C(=O)N[C@@H](C)C(=O)N[C@@H](Cc1c[nH]c2ccccc12)C(=O)N[C@@H](CC(N)=O)C(=O)N[C@H](C(=O)N[C@H]1CSSC[C@@H](C(=O)N[C@@H](Cc2c[nH]cn2)C(=O)N[C@@H](CCCNC(=N)N)C(=O)N[C@@H](CCCNC(=N)N)C(=O)N[C@@H](C)C(=O)N[C@@H](CC(N)=O)C(N)=O)NC(=O)[C@H](C(C)C)NC(=O)[C@H](CCCNC(=N)N)NC(=O)[C@H](C(C)C)NC(=O)CNC(=O)[C@H](CC(N)=O)NC(=O)[C@H](CCCNC(=N)N)NC(=O)[C@H](Cc2ccc(O)cc2)NC(=O)[C@H](C(C)C)NC1=O)C(C)C)C(C)C,,"ICR mouse, serum","ip, 10 mg/kg, 3 d dosing, blood day 5",,total protein,53.5 ± 2.12 g/L
CC(C)n1c(C2CCNCC2)nc2c([N+](=O)[O-])c(Br)c(Br)cc21,refers to: Nausea,AML patients,125 mg,,adverse events causing discontinuation,2%
Cn1c(-c2ccc(C(N)=O)cc2F)nnc1C(C)(C)Oc1c(F)cc(Cl)cc1F,,human,"oral, 60 mg, single ascending dose",,nervous system disorder TEAE,0%
CCN1[C@@H](C(=O)NC23CCC(C(=O)O)(CC2)CC3)[C@H](c2cccc(Cl)c2F)[C@]2(C(=O)Nc3cc(Cl)ccc32)C12CCCCC2,,patients with advanced solid tumours,"oral, 200 mg",,grade ≥3 Anemia incidence,50%
CO[C@H]1C[C@@H]2CC[C@@H](C)[C@@](O)(O2)C(=O)C(=O)N2CCCC[C@H]2C(=O)O[C@H]([C@H](C)C[C@@H]2CC[C@@H](OC(=O)NCCOCCOCCOCCOCCOCCOCCOCCOCCC(=O)N3CCc4cc(Cn5nc(-c6ccc7oc(N)nc7c6)c6c(N)ncnc65)ccc4C3)[C@H](OC)C2)C[C@@H](O)[C@H](C)/C=C(\C)[C@@H](O)[C@@H](OC)C(=O)[C@H](C)C[C@H](C)/C=C/C=C/C=C/1C,,patients with advanced solid tumours,"intravenous, 6 mg weekly, grade 3 or higher",,fatigue incidence,8.3%
O=C(Nc1ccccc1)C1CCN(C(=O)Oc2cccnc2)CC1,adverse event reporting,healthy women,"oral, 60 mg, 7 days",,subjects with sleep disorder,0%
c1csc(CNc2cc[nH]n2)c1,micronucleus,"CD-1 mouse Hsd:ICR(CD-1), male, bone marrow","oral, 125 mg/kg/day, 3 days",,PCE to total erythrocyte ratio,0.506
COc1cc2c(Oc3ccc4[nH]c(C)cc4c3F)ccnc2cc1OCC1(N)CC1,,paediatric refractory sarcoma patients,8 mg,,Triglyceride elevation incidence,0%
CCc1ccc(CC/C=C/c2ccc3c(c2)C(=O)CC3)cc1,,"Sprague-Dawley rat, male","oral, 120 mg/kg/day, 14 days",,Phosphorus,3.23 mM
O[C@H]1CCCN[C@@H]1CCCn1cnc2c(Cl)c(Cl)ccc21,,"human, UGT2B7 ND+DD phenotype, plasma","oral, 150 mg, single dose",,AUC(0-12 h),640 ng·h/mL
C[C@H]1C[C@@H](N2C(=N)N[C@](C)(c3cccc(NC(=O)c4cccc(C#N)c4)c3Cl)CC2=O)CCO1,,rat,"500 mg/kg, every other day",,ALAT change,38%
N=C(CC(O)c1cc2c(F)cc(F)cc2c2cc(C(F)(F)F)ccc12)Nc1ccc(F)c(F)c1 (centres unmarked),,human blood,"2.5 ng/mL, 30 min",,blood-to-plasma ratio,0.97 ± 0.03
COc1ccc2nc3cc(Cl)ccc3c(Nc3cc(CN4CCCC4)c(O)c(CN4CCCC4)c3)c2n1,,"mouse, blood","oral, 57 mg/kg",,white blood cell count,8.22 10⁹/L
CCCCCCCCCCCCCCCC(=O)N[C@@H](CCC(=O)NCCCC[C@H](NC(=O)[C@H](CC(=O)O)NC(=O)[C@H](CO)NC(=O)[C@@H](NC(=O)[C@H](Cc1ccccc1)NC(=O)[C@@H](NC(=O)CNC(=O)[C@H](CCC(N)=O)NC(=O)[C@H](CO)NC(=O)[C@@H](N)Cc1c[nH]cn1)[C@@H](C)O)[C@@H](C)O)C(=O)N[C@@H](CO)C(=O)N[C@@H](CCC(=O)O)C(=O)N[C@@H](Cc1ccc(O)cc1)C(=O)N[C@@H](CC(C)C)C(=O)N[C@@H](CC(=O)O)C(=O)N[C@@H](CO)C(=O)N[C@@H](CCC(=O)O)C(=O)N[C@@H](CCCNC(=N)N)C(=O)N[C@@H](C)C(=O)N[C@@H](CCCNC(=N)N)C(=O)N[C@@H](CC(=O)O)C(=O)N[C@@H](Cc1ccccc1)C(=O)N[C@H](C(=O)N[C@@H](C)C(=O)N[C@@H](Cc1c[nH]c2ccccc12)C(=O)N[C@@H](CC(C)C)C(=O)N[C@@H](CCC(=O)O)C(=O)N[C@@H](C)C(=O)NCC(=O)NCC(=O)O)C(C)C)C(=O)O,refers to: Vomiting,humans CrCl at least 90 mL/min,"subcutaneous, 100 µg single dose",,treatment-related adverse events,37.5%
C[C@]1(CO)Cc2ncn(-c3ccc(C#N)c(Cl)c3)c2C(=O)O1,,healthy European subjects,"dose not given, single dose, all doses",,drug-related headache,2.1%
C=CC(=O)N[C@H]1C=C(C)c2c(-c3cnc4ccccc4c3)c3c(N)ncnc3n2C1,two-compartment PK model,"mouse, plasma","oral, dose not given",,central volume of distribution,0.317 L
Cc1cccc(Cn2nc(C3CC3)c3c(NC(=O)c4cnc5cc(OCCN6CCN(C)CC6)ccn45)cccc32)n1,refers to: Vomiting,human pancreatic ductal adenocarcinoma,"oral, dose not given, all-causality",,adverse events incidence,33.3%
CC[C@H](C)[C@H](NC(=O)[C@H](CCCCN)NC(=O)[C@H](CCC(=O)O)NC(=O)[C@H](CCCCN)NC(=O)[C@H](CO)NC(=O)[C@H](CCCCN)NC(=O)[C@H](CCCNC(=N)N)NC(=O)[C@H](Cc1ccccc1)NC(=O)[C@H](Cc1ccccc1)NC(=O)[C@H](CC(=O)O)NC(=O)CNC(=O)[C@H](CC(C)C)NC(=O)[C@@H](N)CC(C)C)C(=O)NCC(=O)N[C@@H](CCCCN)C(=O)N[C@@H](CCC(=O)O)C(=O)N[C@@H](Cc1ccccc1)C(=O)N[C@@H](CCCCN)C(=O)N[C@@H](CCCNC(=N)N)C(=O)N[C@H](C(=O)N[C@H](C(=O)N[C@@H](CCC(N)=O)C(=O)N[C@@H](CCCNC(=N)N)C(=O)N[C@H](C(=O)N[C@@H](CCCCN)C(=O)N[C@@H](CC(=O)O)C(=O)N[C@@H](Cc1ccccc1)C(=O)N[C@@H](CC(C)C)C(=O)N[C@@H](CCCNC(=N)N)C(=O)N[C@@H](CC(N)=O)C(=O)N[C@@H](CC(C)C)C(=O)N[C@H](C(=O)N1CCC[C@H]1C(=O)N[C@@H](CCCNC(=N)N)C(=O)N[C@H](C(=O)N[C@@H](CCC(=O)O)C(=O)N[C@@H](CO)C(=O)O)[C@@H](C)O)C(C)C)[C@@H](C)CC)C(C)C)[C@@H](C)CC,LC-MS,buffer with human neutrophil elastase,"40 µM, 300 min, pH 7.5, 37 °C",baseline: 0 h,remaining intact peptide,1.03% and 1.32% and 1.29%
C[C@@H]1[C@H](O)[C@@H](C)/C=C/C=C/CC/C=C/C=C/C=C/C=C/C(O[C@H]2O[C@H](C)[C@@H](O)[C@H](N)[C@@H]2O)CC2O[C@](O)(CC(O)C(O)CCC(O)CC(O)CC(O)CC(=O)O[C@H]1C)CC(O)C2C(=O)O (some centres unmarked),,"mouse, bilateral renal I/R AKI","iv, 0.1 µmol/kg",baseline: untreated I/R mice,ALT and AST levels,increased
Cn1cncc1-c1c(F)cncc1NC(=O)c1c(N)nn2cc(F)cnc12,,human patients,"oral, 180 mg once daily",,grade ≥3 creatinine increase incidence,0%
CCN1CCN(Cc2ccc(Nc3ncc(F)c(-c4cc(F)c5nc6n(c5c4)[C@H](C)CCC6)n3)nc2)CC1,,patients with advanced solid tumours,"500 mg, phase Ia monotherapy",,dose-limiting toxicity rate,4.2%
COc1ccc(C[C@@H]2NC(=O)[C@H]([C@@H](C)O)NC(=O)[C@@H]3[C@@H]4CCN3C(=O)[C@@H]3Cc5cn(c6ccc(F)cc56)CCCCCCN(Cc5ccc(cc5)CCNC(=O)[C@]5(C)CCCN5C2=O)C(=O)CCC(=O)N[C@@H](C)C(=O)N[C@H](CNC(=O)CCCCC[N+](C)(C)C)C(=O)N[C@@H](Cc2cccc(c2)CNC(=O)CO4)C(=O)N3)cc1,refers to: Insomnia,humans,"concentration not given, Study-003",,participants with adverse event,3.2%
[O-][S+]1CCc2nc(N3CCC(c4ncc(Cl)cn4)CC3)nc(NC3(CO)CCC3)c21 (centres unmarked),refers to: Constipation,healthy male humans,"single dose, all groups",,adverse event incidence,8.3%

# For quick reference, copied from above:
SMILES,test,system,conditions,how to read,endpoint,value
CC(C)C[C@H](NC(=O)[C@H](CCCCN)NC(=O)OCC1c2ccccc2-c2ccccc21)C(=O)N[C@H](C(=O)N[C@@H](Cc1ccccc1)C(=O)N[C@@H](Cc1ccccc1)C(=O)N[C@@H](CCCCN)C(=O)NCC(=O)N[C@@H](Cc1ccccc1)C(=O)N[C@@H](C)C(=O)N[C@@H](Cc1c[nH]c2ccccc12)C(=O)N[C@@H](CC(N)=O)C(=O)N[C@H](C(=O)N[C@H]1CSSC[C@@H](C(=O)N[C@@H](Cc2c[nH]cn2)C(=O)N[C@@H](CCCNC(=N)N)C(=O)N[C@@H](CCCNC(=N)N)C(=O)N[C@@H](C)C(=O)N[C@@H](CC(N)=O)C(N)=O)NC(=O)[C@H](C(C)C)NC(=O)[C@H](CCCNC(=N)N)NC(=O)[C@H](C(C)C)NC(=O)CNC(=O)[C@H](CC(N)=O)NC(=O)[C@H](CCCNC(=N)N)NC(=O)[C@H](Cc2ccc(O)cc2)NC(=O)[C@H](C(C)C)NC1=O)C(C)C)C(C)C,,"ICR mouse, serum","ip, 10 mg/kg, 3 d dosing, blood day 5",,total protein,53.5 ± 2.12 g/L
CC(C)n1c(C2CCNCC2)nc2c([N+](=O)[O-])c(Br)c(Br)cc21,refers to: Nausea,AML patients,125 mg,,adverse events causing discontinuation,2%
Cn1c(-c2ccc(C(N)=O)cc2F)nnc1C(C)(C)Oc1c(F)cc(Cl)cc1F,,human,"oral, 60 mg, single ascending dose",,nervous system disorder TEAE,0%
